Experimental data collected from several papers.
Lines come from different studies, so protocols differ. ± marks the error that the study gave.

Structure (SMILES)	tested on	assay	system	conditions	scale	measurement	result
CNCc1ccc(-c2[nH]c3cc(F)cc4c3c2CCNC4=O)cc1			patients	oral, 840 mg twice daily, all grades		abdominal distension incidence	0%
O=C(COc1ccc(Cl)cc1)NC12CC(c3nnc([C@H]4C[C@@H](OC(F)(F)F)C4)o3)(C1)C2			human both sexes	oral, 100 mg once daily, 14 days		drug-related TEAE participants	85.7%
CNC(=O)c1cc(Oc2ccc(NC(=O)Nc3cc(C(C)(C)C)nn3-c3ccc4ncccc4c3)c(F)c2)ccn1		measured: worst grade 2	human	oral, dose not given, cycles 1 and 2, Low Cmax subgroup		patients with musculoskeletal disorder AE	6%
COc1cc2c(c(O)c1OC)C(=O)c1c(cc(C)c(O[C@@H]3O[C@H](CO)[C@@H](O)[C@H](O)[C@H]3O)c1OC)C2=O	HepaRG co-cultured with HK-2	MTT		16.67 µM, 24 h	baseline: untreated control	cell viability	101 ± 10.7%
COc1cc(C(=O)O)ccc1OS(=O)(=O)O			human plasma	mean		plasma concentration	463 nM
O=C1c2cccc(O)c2C(=O)c2c(O)cc(CO)cc21	HepaRG co-cultured with HK-2	MTT		66.67 µM, 24 h	baseline: untreated control	cell viability	105 ± 7.63%
O=C(O)CCC(=O)O.[2H]C([2H])([2H])Oc1cc(C)c2[nH]ccc2c1CN1CC[C@@H](C2CC2)C[C@H]1c1ccc(C(=O)O)cc1		multiple ascending dose	healthy Chinese subjects	125 mg twice daily		subjects with allergic dermatitis TEAE	0%
CCN1CCN(c2cc(N3CCN(CC)CC3)nc(NCCNc3ccnc4cc(Cl)ccc34)n2)CC1	COS-7			10 µM, 24 h, 0.1% DMSO, unit not given	baseline: vehicle control	apoptotic cells	1.43 ± 0.82
C=CC(=O)Nc1cc(Nc2nccc(-c3cn(C)c4ccccc34)n2)c(OC)cc1N(C)CCN(C)C		storage stability	human dried blood spots	24 h, on ice, medium QC level		recovery	77.7%
CCc1cc(C(=O)NC)c2nccc(N3CCc4c(cc(Cn5ccnc5)cc4-c4cn(C)nc4C(F)(F)F)C3=O)c2c1			Sprague Dawley rats	oral, 50 mg/kg once daily, 7 days		serum ALT activity	63.3 ± 13.8 U/L
Nc1ncn([C@H]2C[C@H](O)[C@@H](CO)O2)c(=O)n1			mouse plasma	1.2 ng/mL, -80 °C, three freeze-thaw cycles, no THU		mean deviation from nominal	10.3%
C[C@@H]1CN(c2c(F)c(N)c3c(=O)c(C(=O)O)cn(C4CC4)c3c2F)C[C@H](C)N1		starch gel membrane permeability	Gram-negative envelope surrogate	200 µM, 20 min, pH 7.4		amount permeated	0.56 nmol
O=C([O-])CN(CCN(CC(=O)[O-])Cc1cc(CCC(=O)NCCCCCC(=O)NCCCC[C@H](NC(=O)N[C@@H](CCC(=O)O)C(=O)O)C(=O)O)ccc1[O-])Cc1cc(CCC(=O)O)ccc1[O-].[68Ga+3].[OH3+]		PET/CT	human, prostatic lesion			SUVmax	20.8
O=C(O)c1cccc(O)c1			human plasma	mean, both sexes		plasma concentration	2430 nM
C=CC(=O)N1CCC(c2ccc(C(N)=O)c(-c3ccc(Oc4ccccc4)cc3)n2)CC1		CTCAE 4.03	patients with relapsed/refractory MCL	oral, dose not given		incidence of serious cerebral infarction	0.9%
C[C@@H](N)C1CCN(S(=O)(=O)c2cccc3cnccc23)CC1		measured: Tachycardia	healthy volunteers	25 mg, fasted		TEAE incidence	0%
C[C@@H]1CCO[C@H]2Cn3cc(C(=O)NCc4ccc(F)cc4F)c(=O)c(O)c3C(=O)N12			human paediatric patients, weight sample B to under sample C kg, plasma	oral, 30 mg dispersible tablet, steady state, geometric mean, population PK post-hoc, N 5		AUC(0-24)	78300 ng·h/mL
O=C(O)/C=C/c1ccccc1			human plasma	mean, both sexes		plasma concentration	5990 nM
CC(C)C[C@H](NC(=O)[C@@H](Cc1c[nH]c2ccccc12)NC(=O)[C@H](Cc1ccc(O)cc1)NC(=O)[C@H](CO)NC(=O)[C@H](Cc1c[nH]c2ccccc12)NC(=O)[C@H](Cc1c[nH]cn1)NC(=O)[C@@H]1CCC(=O)N1)C(=O)N[C@@H](CCCNC(=N)N)C(=O)N1CCC[C@H]1C(=O)NCC(N)=O			Chinese girls, precocious puberty, plasma	intramuscular, 22.5 mg, 4 h post-injection day 1, mean		plasma concentration	48.2 ng/mL
Cc1nc2c(Cl)cccn2c1NC(=O)c1ccc(-c2ccc(N(C)C)cc2)o1	COS-7			10 µM, 24 h, 0.1% DMSO, unit not given	baseline: vehicle control	apoptotic cells	1.29 ± 0.28
CO[C@H]1/C=C/O[C@@]2(C)Oc3c(C)c(O)c4c(O)c(c(/C=N/N5CCN(C)CC5)c(O)c4c3C2=O)NC(=O)/C(C)=C\C=C\[C@H](C)[C@H](O)[C@@H](C)[C@@H](O)[C@@H](C)[C@H](OC(C)=O)[C@@H]1C		starch gel membrane permeability	Gram-negative envelope surrogate	200 µM, 10 min, pH 7.4		amount permeated	0.35 nmol
CSc1ccccc1C(=O)NCCn1cc(C(=O)NCc2cccc(C)n2)c(=O)c2cc3c(cc21)OC(F)(F)O3			Sprague-Dawley rat, male, whole blood	intravenous, 5 mg/kg of parent compound		Tmax	4.98 min
N#Cc1ccc2c(c1)[C@H]1CCCN(C(=O)c3ccc4[nH]cnc4c3)[C@H]1C2			human males	20 mg, end of trial		total testosterone level	11 nmol/L
NS(=O)(=O)c1cc(C(=O)O)c(NCc2ccco2)cc1Cl		measured: arthropod bite	healthy men	oral, 8 days, treatment-emergent, crossover trial		subjects with adverse event	0%

Repeated from above:
Structure (SMILES)	tested on	assay	system	conditions	scale	measurement	result
O=C(O)c1cccc(O)c1			human plasma	mean, both sexes		plasma concentration	2430 nM
C=CC(=O)N1CCC(c2ccc(C(N)=O)c(-c3ccc(Oc4ccccc4)cc3)n2)CC1		CTCAE 4.03	patients with relapsed/refractory MCL	oral, dose not given		incidence of serious cerebral infarction	0.9%
C[C@@H](N)C1CCN(S(=O)(=O)c2cccc3cnccc23)CC1		measured: Tachycardia	healthy volunteers	25 mg, fasted		TEAE incidence	0%
C[C@@H]1CCO[C@H]2Cn3cc(C(=O)NCc4ccc(F)cc4F)c(=O)c(O)c3C(=O)N12			human paediatric patients, weight sample B to under sample C kg, plasma	oral, 30 mg dispersible tablet, steady state, geometric mean, population PK post-hoc, N 5		AUC(0-24)	78300 ng·h/mL
